{"data": "Measured values of several laboratories", "note": "Numbered parts are unrelated; each lists some results of a single study.", "sequence of UniProt Q00537 (whole entry, looked up)": "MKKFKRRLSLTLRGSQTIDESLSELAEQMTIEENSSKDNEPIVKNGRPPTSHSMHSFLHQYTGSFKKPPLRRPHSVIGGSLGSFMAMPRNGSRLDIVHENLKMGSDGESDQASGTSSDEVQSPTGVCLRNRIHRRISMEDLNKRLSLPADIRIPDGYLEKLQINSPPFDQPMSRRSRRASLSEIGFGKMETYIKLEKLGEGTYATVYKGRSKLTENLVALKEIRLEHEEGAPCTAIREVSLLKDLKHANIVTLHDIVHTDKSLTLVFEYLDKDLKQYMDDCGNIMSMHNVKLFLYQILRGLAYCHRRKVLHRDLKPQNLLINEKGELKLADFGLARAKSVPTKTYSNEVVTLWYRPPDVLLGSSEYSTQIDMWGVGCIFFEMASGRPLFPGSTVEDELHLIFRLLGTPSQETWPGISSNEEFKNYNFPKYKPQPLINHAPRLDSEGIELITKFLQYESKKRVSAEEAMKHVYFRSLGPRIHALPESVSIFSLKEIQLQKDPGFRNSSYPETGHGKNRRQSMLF", "sequence of UniProt Q9P1W9 (whole entry, looked up)": "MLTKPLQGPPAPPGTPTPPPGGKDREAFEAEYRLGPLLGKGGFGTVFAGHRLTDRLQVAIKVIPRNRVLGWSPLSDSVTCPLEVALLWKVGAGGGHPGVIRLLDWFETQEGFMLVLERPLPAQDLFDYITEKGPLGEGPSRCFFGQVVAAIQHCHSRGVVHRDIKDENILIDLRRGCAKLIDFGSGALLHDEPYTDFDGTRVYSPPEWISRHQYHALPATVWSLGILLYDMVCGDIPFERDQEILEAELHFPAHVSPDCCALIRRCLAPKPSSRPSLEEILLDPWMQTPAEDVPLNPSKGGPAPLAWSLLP", "sequence of UniProt Q7KZI7 (whole entry, looked up)": "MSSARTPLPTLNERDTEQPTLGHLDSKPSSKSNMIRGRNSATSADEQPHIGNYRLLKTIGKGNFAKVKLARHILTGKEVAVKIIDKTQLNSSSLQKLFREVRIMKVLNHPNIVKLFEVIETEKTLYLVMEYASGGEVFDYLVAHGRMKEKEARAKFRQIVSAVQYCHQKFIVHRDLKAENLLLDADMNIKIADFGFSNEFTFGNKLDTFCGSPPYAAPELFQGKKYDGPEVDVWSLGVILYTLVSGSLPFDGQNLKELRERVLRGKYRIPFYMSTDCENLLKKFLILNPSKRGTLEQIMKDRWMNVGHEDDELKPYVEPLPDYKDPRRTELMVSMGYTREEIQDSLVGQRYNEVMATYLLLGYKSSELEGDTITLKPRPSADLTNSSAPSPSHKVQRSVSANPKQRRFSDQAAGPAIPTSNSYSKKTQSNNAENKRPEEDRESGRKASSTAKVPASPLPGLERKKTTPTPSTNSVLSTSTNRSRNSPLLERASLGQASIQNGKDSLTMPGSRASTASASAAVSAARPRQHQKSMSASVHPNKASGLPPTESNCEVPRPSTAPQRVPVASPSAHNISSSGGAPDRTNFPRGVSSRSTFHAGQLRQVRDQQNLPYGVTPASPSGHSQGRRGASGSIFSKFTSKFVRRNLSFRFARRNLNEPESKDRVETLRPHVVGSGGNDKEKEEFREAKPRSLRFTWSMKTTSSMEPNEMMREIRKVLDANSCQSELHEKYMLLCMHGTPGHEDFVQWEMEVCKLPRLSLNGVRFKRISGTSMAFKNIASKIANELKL", "sequence of UniProt Q9NY57 (whole entry, looked up)": "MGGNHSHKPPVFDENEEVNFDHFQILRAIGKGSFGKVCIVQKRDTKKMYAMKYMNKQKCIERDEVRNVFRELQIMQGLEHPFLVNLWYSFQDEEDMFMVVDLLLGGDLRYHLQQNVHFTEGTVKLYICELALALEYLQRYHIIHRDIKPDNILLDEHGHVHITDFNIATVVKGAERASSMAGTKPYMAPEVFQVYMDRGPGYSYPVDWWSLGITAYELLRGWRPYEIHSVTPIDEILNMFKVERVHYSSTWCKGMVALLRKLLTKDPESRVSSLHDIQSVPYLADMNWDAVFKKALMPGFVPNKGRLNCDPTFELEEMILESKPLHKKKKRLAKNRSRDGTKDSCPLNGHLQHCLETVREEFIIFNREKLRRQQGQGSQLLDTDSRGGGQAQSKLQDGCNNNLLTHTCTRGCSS"}
{"data": "Block 1", "target": "Receptor tyrosine-protein kinase erbB-4 (ERBB4, Homo sapiens, UniProt Q15303)", "effect on": "enzyme activity", "mode": "inhibitor", "concentration": "0.5 µM", "reference": "control", "sequence of UniProt Q15303 (whole entry, looked up)": "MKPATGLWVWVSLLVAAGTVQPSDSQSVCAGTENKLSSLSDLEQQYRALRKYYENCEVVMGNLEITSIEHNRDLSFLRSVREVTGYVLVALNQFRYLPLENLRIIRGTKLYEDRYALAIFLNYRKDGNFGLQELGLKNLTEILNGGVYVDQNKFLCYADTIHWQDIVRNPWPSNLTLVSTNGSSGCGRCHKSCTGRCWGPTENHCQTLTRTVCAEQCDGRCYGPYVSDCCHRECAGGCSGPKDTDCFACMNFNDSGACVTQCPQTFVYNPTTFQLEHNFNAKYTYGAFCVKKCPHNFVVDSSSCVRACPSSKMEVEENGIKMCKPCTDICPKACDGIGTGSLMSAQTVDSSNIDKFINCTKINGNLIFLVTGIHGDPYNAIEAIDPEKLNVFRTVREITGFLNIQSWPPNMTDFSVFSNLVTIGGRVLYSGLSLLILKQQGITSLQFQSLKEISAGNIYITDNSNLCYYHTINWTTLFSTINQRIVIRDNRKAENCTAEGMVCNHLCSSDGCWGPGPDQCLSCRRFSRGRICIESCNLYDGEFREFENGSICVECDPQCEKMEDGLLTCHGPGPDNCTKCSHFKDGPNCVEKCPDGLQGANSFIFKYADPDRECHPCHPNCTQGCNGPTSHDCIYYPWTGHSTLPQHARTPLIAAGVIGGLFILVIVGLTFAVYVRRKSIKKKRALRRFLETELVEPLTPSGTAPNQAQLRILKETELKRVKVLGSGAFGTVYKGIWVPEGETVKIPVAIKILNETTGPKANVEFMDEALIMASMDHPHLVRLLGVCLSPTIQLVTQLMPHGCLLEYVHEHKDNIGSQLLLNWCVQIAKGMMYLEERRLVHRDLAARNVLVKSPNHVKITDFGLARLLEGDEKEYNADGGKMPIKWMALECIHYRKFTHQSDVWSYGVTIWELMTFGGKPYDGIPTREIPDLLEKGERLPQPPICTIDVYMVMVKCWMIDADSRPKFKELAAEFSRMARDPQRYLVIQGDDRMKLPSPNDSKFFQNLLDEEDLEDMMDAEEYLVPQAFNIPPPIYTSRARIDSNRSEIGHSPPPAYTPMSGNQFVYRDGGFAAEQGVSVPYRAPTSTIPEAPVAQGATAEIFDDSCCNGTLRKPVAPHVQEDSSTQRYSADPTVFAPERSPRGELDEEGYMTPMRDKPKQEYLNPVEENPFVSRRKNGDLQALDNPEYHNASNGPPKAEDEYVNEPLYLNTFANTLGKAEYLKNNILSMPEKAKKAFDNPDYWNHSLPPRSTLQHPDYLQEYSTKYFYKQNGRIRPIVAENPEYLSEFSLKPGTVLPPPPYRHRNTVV"}
{"SMILES": "Cc1cn(-c2cc(NC(=O)c3ccc(C)c(Nc4nccc(-c5cccnc5)n4)c3)cc(C(F)(F)F)c2)cn1", "remaining activity [%]": 82.1}
{"SMILES": "c1ccc(-c2[nH]ncc2-c2ccnc3ccccc23)nc1", "remaining activity [%]": 85.7}
{"SMILES": "CCN(CC)C(=O)c1ccc(Nc2nc(OCC3CCCCC3)c3[nH]cnc3n2)cc1", "remaining activity [%]": 91}
{"SMILES": "O=C1c2ccccc2-c2n[nH]c3cccc1c23", "remaining activity [%]": 98.2}
{"SMILES": "Cn1nc2c3c(cccc31)C(=O)c1ccccc1-2", "remaining activity [%]": 94.3}
{"SMILES": "O=C(NC(NC(=S)Nc1ccc(F)c([N+](=O)[O-])c1)C(Cl)(Cl)Cl)C(c1ccccc1)c1ccccc1 (stereo not drawn)", "remaining activity [%]": 103}
{"SMILES": "O=c1cc(-c2cccc3c2Sc2ccccc2S3)oc(N2CCOCC2)c1", "remaining activity [%]": 105}
{"SMILES": "c1ccc(-c2cnc(Nc3ccc(OCCN4CCCC4)cc3)s2)cc1", "remaining activity [%]": 101}
{"SMILES": "CN(C)C[C@H]1CCn2c(c(C3=C(c4cn(C)c5ccccc45)C(=O)NC3=O)c3ccccc32)C1", "remaining activity [%]": 84.3}
{"SMILES": "N#C/C(=C\\c1ccc(O)c(O)c1)C(=O)NCc1ccccc1", "remaining activity [%]": 80.9}
{"data": "Block 2", "target": "Prothrombin, mature alpha-thrombin (F2, Homo sapiens, UniProt P00734)", "method": "aptamer microarray, sandwich", "form": "DNA with 2'F-ANA", "matrix": "in vitro", "concentration": "200 nM", "notes": "whole 15-mer aptamer, many near background", "with": "Cy3 exosite-II aptamer, 400 nM", "reading": "higher = stronger binding", "strand": "GGTTGGTGTGGTTGG"}
{"Modification": "2'F-ANA at 4 5 6 8 10 12 13 14 15", "mean fluorescence intensity [a.u.]": 127}
{"Modification": "2'F-ANA at 3 5 10 11 12 13 14", "mean fluorescence intensity [a.u.]": 131}
{"Modification": "2'F-ANA at 1 2 3 8 10 12 13", "mean fluorescence intensity [a.u.]": 85.9}
{"Modification": "2'F-ANA at 1 7 9 10 11", "mean fluorescence intensity [a.u.]": 58.4}
{"Modification": "2'F-ANA at 1 5 6 7 13 15", "mean fluorescence intensity [a.u.]": 47}
{"Modification": "2'F-ANA at 5 7 8 13 14 15", "mean fluorescence intensity [a.u.]": 82}
{"Modification": "2'F-ANA at 2 3 6 7 10 11 12 14", "mean fluorescence intensity [a.u.]": 288}
{"Modification": "2'F-ANA at 1 3 9 10", "mean fluorescence intensity [a.u.]": 87.7}
{"data": "Block 3", "Structure (SMILES)": "CCS(=O)(=O)c1cc2cc(C[C@](O)(CC(C)(C)c3ccc(F)cc3C(N)=O)C(F)(F)F)[nH]c2cn1", "effect on": "cell-free assay", "method": "competition with immobilised ligand", "concentration": "1 µM"}
{"target": "STK32B (Homo sapiens, UniProt Q9NY57)", "remaining binding [%]": 94}
{"target": "PIM2 (Homo sapiens, UniProt Q9P1W9)", "remaining binding [%]": 100}
{"target": "MARK2 (Homo sapiens, UniProt Q7KZI7)", "remaining binding [%]": 78}
{"target": "CDK17 (Homo sapiens, UniProt Q00537)", "remaining binding [%]": 88}
{"data": "Single results of other studies"}
{"SMILES": "CC(C)n1cnc(-c2ccc(F)cc2)c1-c1ncc(C(=O)Nc2ccc(N3CCN(C)CC3)cc2)[nH]1", "test system": "human, idiopathic pulmonary fibrosis", "conditions": "60 mg once daily, trial, treatment-emergent", "measurement": "patients with left ventricular dysfunction", "value": "0%"}
{"SMILES": "COc1ccc(-c2c(Nc3ccccn3)[nH]c3c(C4=CCCCC4)c(-c4ccccc4)nn3c2=O)cc1", "test": "LC-MS/MS non-compartmental", "test system": "human, plasma", "conditions": "oral, 200 mg twice daily, day 15 of cycle 1, multiple dose, geometric mean", "measurement": "effective half-life", "value": "98.8 h"}
{"note": "Excerpt of the above (block 2):"}
{"Modification": "2'F-ANA at 1 3 9 10", "mean fluorescence intensity [a.u.]": 87.7}
{"Modification": "2'F-ANA at 3 5 10 11 12 13 14", "mean fluorescence intensity [a.u.]": 131}
{"Modification": "2'F-ANA at 2 3 6 7 10 11 12 14", "mean fluorescence intensity [a.u.]": 288}
{"Modification": "2'F-ANA at 4 5 6 8 10 12 13 14 15", "mean fluorescence intensity [a.u.]": 127}
